Measurements of several laboratories.
Compare with care: the assays were run in different laboratories. Values joined by “and” are separate records of one study, mostly repeats; a detail may differ. ± gives the spread as reported.
rep main protease: Replicase polyprotein 1ab, main protease (rep, Severe acute respiratory syndrome coronavirus 2, UniProt P0DTD1)
rep nsp13 helicase: Replicase polyprotein 1ab, nsp13 helicase (rep, Severe acute respiratory syndrome coronavirus 2, UniProt P0DTD1)
rep nsp16 with nsp10: Replicase polyprotein 1ab, nsp16 with nsp10 (rep, Severe acute respiratory syndrome coronavirus 2, UniProt P0DTD1)
rep papain-like protease: Replicase polyprotein 1ab, papain-like protease (rep, Severe acute respiratory syndrome coronavirus 2, UniProt P0DTD1)
rep methyltransferase: Replicase polyprotein 1ab, methyltransferase (rep, Severe acute respiratory syndrome coronavirus 2, UniProt P0DTD1)

| SMILES | target | assay | conditions | IC50 |
| --- | --- | --- | --- | --- |
| Cc1cccc(Cl)c1-n1sc(=O)n(CC2CC2)c1=O | Replicase polyprotein 1ab, nsp3 macrodomain (rep, Severe acute respiratory syndrome coronavirus 2, UniProt P0DTD1) | ADP-ribose binding, inhibitor, fluorescence polarization | Mac1 domain, SARS-CoV-2 | 4.4 ± 0.3 µM |
| COC(=O)C[C@@H](C(=O)OC)n1[se]c2ccccc2c1=O | rep main protease | enzyme activity, inhibitor |  | 0.101 µM |
| O=C(Oc1cncc(Cl)c1)c1cc2ccccc2[nH]1 | rep main protease | enzyme activity, inhibitor |  | 0.0247 µM |
| COc1cc([C@H]2OC[C@H]3[C@@H]2CO[C@@H]3c2ccc3c(c2)OCO3)ccc1O | rep main protease | enzyme activity, inhibitor, FRET |  | 16.3 ± 0.83 µM |
| O=c1cc(-c2ccc(O)c(O)c2)oc2cc(O[C@@H]3O[C@H](CO)[C@@H](O)[C@H](O)[C@H]3O)cc(O)c12 | rep nsp13 helicase | ATPase activity | no nucleic acid | > 30 µM |
| O=C(c1cccc(-n2cccc2)c1)N1CCCN(S(=O)(=O)c2ccc(F)cc2)CC1 | rep main protease | enzyme activity, inhibitor, FRET |  | 21 µM |
| CN(C)c1ccc(-c2cccc3c2CC(CO)c2c(-c4ccc(Br)cc4)ccc(O)c2-3)nc1 (centres unmarked) | rep main protease | enzyme activity, inhibitor |  | 5.5 µM |
| N[C@H](C[Se][Se]C[C@@H](N)C(=O)O)C(=O)O | rep main protease | enzyme activity, inhibitor |  | 64.9 µM |
| CC(=O)Oc1ccc(/C=C/C(=O)O[C@@H]2Cc3c(O)cc(O)cc3O[C@@H]2c2ccc(O)c(O)c2)cc1OC(C)=O | rep main protease | enzyme activity, inhibitor, FRET |  | 23.1 µM |
| O=c1c2cccc([N+](=O)[O-])c2[se]n1Cc1ccccc1 | rep main protease | enzyme activity, inhibitor, FRET |  | 2.01 µM |
| Cc1c(C(=O)N2c3ccccc3NC(=O)C2CC(=O)Nc2ccc(Cl)c(Cl)c2)oc2ccccc12 (centres unmarked) | rep main protease | enzyme activity, inhibitor, FRET |  | 18 µM |
| O=C1CC(c2ccccc2)Oc2ccccc21 (centres unmarked) | rep nsp13 helicase | helicase unwinding | with: 1 mM DTT | 5.2 ± 1.5 µM |
| Cn1cc(C(=O)Nc2ccccn2)c2ccccc21 | rep main protease | enzyme activity, inhibitor |  | 4.53 µM |
| O=C(NCCc1cccc(F)c1)C(c1cncnc1)N(C(=O)C(F)Cl)c1ccc(S(F)(F)(F)(F)F)cc1 (centres unmarked) | rep main protease | enzyme activity, inhibitor |  | 0.21 µM |
| O=C(O)c1cc(O)c(O)c(O)c1 | rep main protease | inhibitor |  | 6.18 ± 0.07 µM |
| Nc1ncnc2c1ncn2[C@@H]1O[C@H](CSCc2cc(C(=O)O)cc(-c3ccc(O)cc3)c2)[C@@H](O)[C@H]1O | rep nsp16 with nsp10 | methyltransferase activity, inhibitor | 30 min, 30 °C, with: SAM 10 µM | 0.0008 ± 5e-05 µM |
| C=CC(=O)NC(CC(=C)C)C(=O)N1CC(C(=O)NC(C(=O)NC)C(C)CC)C(c2cccc(C(F)(F)F)c2)C1 (centres unmarked) | rep main protease |  |  | 61.6 µM |
| Cc1ccc(NC(=S)N/N=C/c2ccc(O)cc2)cc1 | rep main protease | enzyme activity, inhibitor, FRET |  | 3.25 µM |
| Cc1ccc(C)c(COn2nnc3ccc(S(=O)(=O)N(C)C)cc32)c1 | rep main protease | enzyme activity, inhibitor |  | > 100 µM |
| Cc1cccc2c3c(ccc12)C1=C(C(=O)C3=O)[C@@H](C)CO1 | rep papain-like protease | enzyme activity, inhibitor, fluorescence |  | < 100 µM and 68 µM |
| COC(=O)[C@H](C)NC(=O)c1ccccc1[Se][Se]c1ccccc1C(=O)N[C@@H](C)C(=O)OC | rep main protease | enzyme activity, inhibitor |  | 1.06 µM |
| CN(C)CCCCNC(=O)C[C@H](Cc1ccc(F)cc1)NC(=O)[C@@H](Cc1ccc(Cl)cc1Cl)NC(=O)[C@@H](N)Cc1ccccc1C#N | rep main protease | enzyme activity, inhibitor, fluorescence |  | 0.8 µM |
| COC(=O)C(CO)NC(=O)CC(O)C(Cc1ccccc1)NC(=O)OC(C)(C)C (centres unmarked) | rep papain-like protease | enzyme activity, inhibitor, FRET |  | 1.46 µM |
| CCOC(=O)[C@@H](NC(=O)c1ccccc1[Se][Se]c1ccccc1C(=O)N[C@H](C(=O)OCC)C(C)C)C(C)C | rep main protease | enzyme activity, inhibitor |  | 1.39 µM |

| SMILES | target | assay | conditions | IC50 |
| --- | --- | --- | --- | --- |
| CC(C)CCCCCCCCCCCCc1cc(O)cc(O)c1 | rep main protease | enzyme activity, inhibitor | with preincubation | 13 µM |
| OC[C@H]1O[C@@H](Oc2cc3c(O)cc(O)cc3[o+]c2-c2ccc(O)c(O)c2)[C@H](O)[C@@H](O)[C@@H]1O | rep methyltransferase | enzyme activity, inhibitor |  | 15.6 µM |
| CCC(C(=O)Nn1cccc1)n1cccc2nc(SCc3ccc(F)cc3)nc1-2 (centres unmarked) | rep papain-like protease | enzyme activity, inhibitor |  | 2.63 µM |
| O=C(Oc1cncc(Cl)c1)c1cccs1 | rep main protease | enzyme activity, inhibitor |  | 0.088 µM |
| CC(C)C[C@H](NC(=O)[C@H](CCCN)NC(=O)[C@@H](NC(=O)[C@@H](N)CCC(N)=O)C(C)C)C(=O)N[C@H](/C=C/S(=O)(=O)c1ccc(O)cc1)C[C@@H]1CCNC1=O | rep main protease | enzyme activity, inhibitor | with preincubation | 1.6 µM |
| COc1cccc2[nH]c(C(=O)NC(CC(C)C)C(=O)NC(CC3CCCNC3=O)C(=O)COC(=O)c3c(C)cc(C)nc3C)cc12 (centres unmarked) | rep main protease | enzyme activity, inhibitor |  | 0.019 µM |
| COc1cc(/C=C/C(=O)O)ccc1O | rep nsp13 helicase | helicase unwinding activity |  | > 30 µM |
| CN(C)CCCCCNC(=O)C[C@H](Cc1ccc(F)cc1)NC(=O)[C@@H](Cc1ccc(Cl)cc1Cl)NC(=O)[C@H](N)Cc1ccccc1C#N | rep main protease | enzyme activity, inhibitor, fluorescence |  | 0.01 µM |
| Nc1ncnc2c1ncn2[C@@H]1O[C@H](CSCc2ccc3ccccc3c2Br)[C@@H](O)[C@H]1O | rep nsp16 with nsp10 | methyltransferase activity, radiometric | with: 3H-SAM | 87 ± 18 µM |
| Cc1ccc(C(=O)NCc2ccc(C)c(C(=O)N[C@H](C)c3cccc4ccccc34)c2)cc1Cl | rep papain-like protease | enzyme activity, inhibitor |  | 29 µM |
| O=C(NCCc1cccc(F)c1)C(c1cccnc1)N(C(=O)C(F)Cl)c1ccc(S(F)(F)(F)(F)F)cc1 (single isomer, unassigned) | rep main protease | enzyme activity, inhibitor |  | 0.9 µM |
| N#Cc1ccccc1C[C@@H](N)C(=O)N[C@H](Cc1ccc(Cl)cc1Cl)C(=O)NCCc1ccc(F)cc1 | rep main protease | enzyme activity, inhibitor, fluorescence |  | 0.9 µM |
| COc1ccc(-c2cc(=O)c3c(O)c(Oc4ccc(-c5cc(=O)c6c(O)cc(O)cc6o5)cc4)c(OC)cc3o2)cc1 | rep papain-like protease | enzyme activity, inhibitor, fluorescence | pH 8 | 26.3 µM |
| N#C[C@H](C[C@@H]1CCNC1=O)NC(=O)[C@@H]1[C@H]2CCC[C@H]2CN1C(=O)[C@@H](NC(=O)c1ccon1)C1CCCCC1 | rep main protease | enzyme activity, inhibitor, fluorescence |  | 0.135 µM |
| CC(=O)N[C@@H](Cc1ccc(O)cc1)C(=O)N[C@@H](CC(=O)O)C(=O)N[C@H]1CCC[C@@H]1C(=O)N[C@@H](Cc1ccccc1)C(=O)N[C@@H](Cc1ccc(O)cc1)C(=O)N[C@H]1CCC[C@@H]1C(=O)N[C@@H](Cc1ccc(O)cc1)C(=O)N[C@H](C(=O)N[C@H](C(=O)N[C@@H](Cc1ccccc1)C(=O)N[C@@H](Cc1c[nH]cn1)C(=O)N[C@H](C(=O)N[C@@H](C)C(=O)N[C@H](C(N)=O)[C@@H](C)O)C(C)C)[C@@H](C)O)C(C)C | rep main protease | enzyme activity, inhibitor |  | 0.64 µM |
| CN(C)CCCCNC(=O)[C@H](Cc1ccc(F)cc1)NC(=O)[C@@H](Cc1ccc(Cl)cc1Cl)NC(=O)[C@H](N)Cc1ccccc1C#N | rep main protease | enzyme activity, inhibitor, fluorescence |  | > 10 µM |
| COC(=O)c1ccc2c(c1)CCC1C2=NN(c2ccc(C#N)c(Cl)c2)C1C1CCCC1 (centres unmarked) | rep methyltransferase | enzyme activity, inhibitor |  | > 100 µM |
| O=c1c2ccccc2sn1-c1ccccc1 | rep main protease | enzyme activity, inhibitor | 20 min preincubation | 0.18 ± 0.05 µM |
| O=C(NC1CCC(F)(F)CC1)C(c1cncnc1)N(C(=O)C(F)Cl)c1ccc(-c2cncs2)cc1 (centres unmarked) | rep main protease | enzyme activity, inhibitor |  | 0.061 µM |
| Oc1ccc(/C=N/NC(=S)Nc2ccc(Cl)cc2)cc1 | rep main protease | enzyme activity, inhibitor, FRET |  | 9.11 µM |
| CCc1n[nH]c(NC(=O)c2ccc3c(c2)nnn3C)n1 | rep main protease | enzyme activity, inhibitor, FRET |  | 26.5 µM |
| Cc1ccc(OCCN(C)C)cc1C(=O)N[C@H](C)c1cc(-c2cnn(C)c2)cc(-c2cnn(C(F)F)c2)c1 | rep papain-like protease | enzyme activity, inhibitor, FRET |  | 0.0983 µM |
| CN(C)CCCCNC(=O)CC(Cc1ccc(F)cc1)NC(=O)C(Cc1ccc(Cl)cc1Cl)NC(=O)C(Cl)Cc1ccccc1C#N (centres unmarked) | rep main protease | enzyme activity, inhibitor, fluorescence |  | 3 µM |

A few entries again:
| SMILES | target | assay | conditions | IC50 |
| --- | --- | --- | --- | --- |
| Nc1ncnc2c1ncn2[C@@H]1O[C@H](CSCc2ccc3ccccc3c2Br)[C@@H](O)[C@H]1O | rep nsp16 with nsp10 | methyltransferase activity, radiometric | with: 3H-SAM | 87 ± 18 µM |
| Cc1ccc(C(=O)NCc2ccc(C)c(C(=O)N[C@H](C)c3cccc4ccccc34)c2)cc1Cl | rep papain-like protease | enzyme activity, inhibitor |  | 29 µM |
| O=C(NCCc1cccc(F)c1)C(c1cccnc1)N(C(=O)C(F)Cl)c1ccc(S(F)(F)(F)(F)F)cc1 (single isomer, unassigned) | rep main protease | enzyme activity, inhibitor |  | 0.9 µM |
| N#Cc1ccccc1C[C@@H](N)C(=O)N[C@H](Cc1ccc(Cl)cc1Cl)C(=O)NCCc1ccc(F)cc1 | rep main protease | enzyme activity, inhibitor, fluorescence |  | 0.9 µM |
| COc1ccc(-c2cc(=O)c3c(O)c(Oc4ccc(-c5cc(=O)c6c(O)cc(O)cc6o5)cc4)c(OC)cc3o2)cc1 | rep papain-like protease | enzyme activity, inhibitor, fluorescence | pH 8 | 26.3 µM |
| N#C[C@H](C[C@@H]1CCNC1=O)NC(=O)[C@@H]1[C@H]2CCC[C@H]2CN1C(=O)[C@@H](NC(=O)c1ccon1)C1CCCCC1 | rep main protease | enzyme activity, inhibitor, fluorescence |  | 0.135 µM |
| CC(=O)N[C@@H](Cc1ccc(O)cc1)C(=O)N[C@@H](CC(=O)O)C(=O)N[C@H]1CCC[C@@H]1C(=O)N[C@@H](Cc1ccccc1)C(=O)N[C@@H](Cc1ccc(O)cc1)C(=O)N[C@H]1CCC[C@@H]1C(=O)N[C@@H](Cc1ccc(O)cc1)C(=O)N[C@H](C(=O)N[C@H](C(=O)N[C@@H](Cc1ccccc1)C(=O)N[C@@H](Cc1c[nH]cn1)C(=O)N[C@H](C(=O)N[C@@H](C)C(=O)N[C@H](C(N)=O)[C@@H](C)O)C(C)C)[C@@H](C)O)C(C)C | rep main protease | enzyme activity, inhibitor |  | 0.64 µM |
